Published values from different studies.
Compare with care: the assays were run in different laboratories. Values joined by “and” are separate records of one study, mostly repeats; a detail may differ. ± marks the error that the study gave.
AKR1B1: Aldo-keto reductase family 1 member B1 (AKR1B1, Homo sapiens, UniProt P15121)
pyrD: Dihydroorotate dehydrogenase (quinone) (pyrD, Acinetobacter baumannii, UniProt B7GZW7)
Kir3.1/Kir3.4: Kir3.1/Kir3.4 (Homo sapiens, UniProt P48544+P48549)
TOP2A: DNA topoisomerase 2-alpha (TOP2A, Homo sapiens, UniProt P11388)

For `O=C(CN1C(=O)S/C(=C\c2ccc([N+](=O)[O-])cc2)C1=O)c1ccc([N+](=O)[O-])cc1`, the Hill slope was -0.42 (AKR1B1; enzyme activity, inhibitor).
For `CCOc1nc2nc(C)cc(Nc3ccc(C(F)(F)F)cc3)n2n1`, the robust Z-score was 20 (pyrD; enzyme activity, inhibitor, colorimetric HTS, measured: DCIP reduction; 3 µM; direction not given).
Under “chemical shift change”, `CCc1cnn2c(NCc3ccc[n+]([O-])c3)cc(N3CCCC[C@H]3CCO)nc12` is recorded as -0.084 ppm (BRD4 (Homo sapiens, UniProt O60885); 19F NMR, measured: tyrosine 119; 47 µM; reference: free protein).
The remaining activity of `COc1cc(Nc2ncc3c(n2)-c2ccc(Cl)cc2C(c2c(F)cccc2OC)=NC3)ccc1C(=O)O` is reported as 29% (EPHB4; kinase activity; 1 µM).
With `Cc1cc(Nc2ccc(C(F)(F)F)cc2)n2nc(C(F)(F)F)nc2n1` the robust Z-score was 17.3 (pyrD; enzyme activity, inhibitor, colorimetric HTS, measured: DCIP reduction; 3 µM; direction not given).
`Cc1nn(C2CCS(=O)(=O)C2)c(C)c1NC(=O)COc1cc(Cl)ccc1Cl` (stereo not shown): activity “inactive” (Kir3.1/Kir3.4; activator, thallium flux; HEK293; concentration not given).
`Nc1c(Br)cc(Br)cc1CN[C@H]1CC[C@H](O)CC1` has an activation of 29.3% (SCN2A (Homo sapiens, UniProt Q99250); ion current; 3 µM, 0.08333 h).
For `CCN1CCC[C@H]1CNC(=O)c1c(O)c(Cl)cc(Cl)c1OC`, “log2 fold change” read 0.285 (ADGRF1 (Homo sapiens, UniProt Q5T601); β-arrestin recruitment, TANGO luminescence, measured: GPR110; concentration not given; reference: basal luminescence).
For `Nc1ncnc2c1ncn2[C@@H]1O[C@H](COP(=O)(O)OP(=O)(O)OP(=O)(O)O)[C@@H](O)[C@H]1O`, the normalized current was 0.123 and 0.175 and 0.144 (P2X purinoceptor 7 (P2rx7, Rattus norvegicus, UniProt Q64663, I214A/Q143A/R125A); ion current, agonist, two-electrode voltage clamp; Xenopus oocytes; 100 µM).
`O=C(O)C1=CC(=C(c2ccc(O)c(C(=O)O)c2)c2ccc(O)c(C(=O)O)c2)C=CC1=O` gave a remaining current of 0.993 ± 0.049 (P2X purinoceptor 4 (P2RX4, Homo sapiens, UniProt Q99571); patch clamp; 400 nM, unit not given; reference: baseline).
For `CN1CCC(=C2c3ccccc3Sc3ccccc32)CC1`, agonist activity read “inactive” (HTR1D (Homo sapiens, UniProt P28221); agonist; concentration not given).
`CC1(C)CC[C@]2(C(=O)O)CC[C@]3(C)C(=CC[C@@H]4[C@@]5(C)C[C@@H](O)[C@H](OC(=O)/C=C/c6ccc(O)cc6)C(C)(C)[C@@H]5CC[C@]43C)[C@@H]2C1` (relative stereo) — result for photoaffinity labelling: “inhibited” (Presenilin-1, N-terminal fragment (PSEN1, Homo sapiens, UniProt P49768); S1 subsite probe binding, competitor, measured: PS1 labelled by GY-4; HeLa membranes).
`CCCC[C@H](NC(=O)[C@H](C)c1c(C)[nH]c2ccc(O)cc12)c1ncc(-c2cc3ccccc3nc2OC)[nH]1` gave an effect of 54% (PTGER3 (Homo sapiens, UniProt P43115); 10 µM).
`Nc1nc2c(ncn2[C@@H]2O[C@H](COP(=O)(O)O)[C@@H](O)[C@H]2O)c(=O)[nH]1` has a reaction rate of -0.648 s⁻¹ and -1.27 s⁻¹ and -0.337 s⁻¹ (GUK1 (Homo sapiens, UniProt Q16774, R44A); enzyme activity, NADH-coupled; 2000 µM).
With `O=C(COc1cccc(Cl)c1Cl)Nc1cc(C2CCC2)nn1C1CCOCC1` the Emax was < 10% (Kir3.1/Kir3.4; activator; HEK293).
Under hydrolysis, `CC(C)C[C@@H](N)C(=O)Nc1ccc2ccccc2c1` is recorded as “inactive” (rat aminopeptidase III; substrate; concentration not given, pH 7.0).
With `Nc1ncnc2c1ncn2[C@@H]1O[C@H](COP(=O)(O)CP(=O)(O)OP(=O)(O)O)[C@@H](O)[C@H]1O` the calcium influx was 81.8% and 90.8% and 66.1% and 92.1% (P2X purinoceptor 1 (P2RX1, Homo sapiens, UniProt P51575, S286A); calcium influx; 10 µM; reference: ionomycin response).
For `NCCCCC(=O)O`, “normalised MST signal” read 0.0344 (SLC6A6 (Homo sapiens, UniProt P31641, G62A); binding, microscale thermophoresis; 125 µM, room temperature, together with: 50 nM labelled protein; higher = more binding).
With `CN1CCN(c2cc(-c3ccncc3)c(-c3ccc4ccccc4c3)nn2)CC1` the activation was -6.2% (PTH1R (Homo sapiens, UniProt Q03431); agonist, FLIPR; 12.5 µM).
The log IC50 of `Cc1ccc(/C=C2\SC(=O)N(Cc3nc4ccccc4s3)C2=O)cc1` is reported as 2.47 log nM (AKR1B1; enzyme activity, inhibitor).
With `C[C@H](CCC(C)(C)O)[C@H]1CC[C@H]2[C@@H]3CC=C4C[C@@](C)(O)CC[C@]4(C)[C@H]3CC[C@]12C` the current response was 199 ± 15% (Glutamate NMDA receptor; GRIN1/GRIN2B (GRIN1/GRIN2B, Homo sapiens, UniProt Q05586+Q13224, F563A); positive allosteric modulator, two-electrode voltage clamp; Xenopus oocytes expressing GluN2B-F563A; 10 µM, 0.02% cremophor, together with: 100 µM glutamate and glycine; reference: without compound).
For `CN(C)C(=O)C(CCN1CCC(O)(c2ccc(Cl)cc2)CC1)(c1ccccc1)c1ccccc1`, the Hill coefficient was 1.33 ± 0.49 (Calcium-activated potassium channel subunit alpha-1, with LRRC26 γ1 subunit (KCNMA1, Homo sapiens, UniProt Q12791); BK channel conductance, inside-out patch clamp; BKα/γ1, Vm 0 mV, nominally Ca2+-free).
For `CN1CCN(C(=O)c2ccc3cc(CCNc4ccnc5ccc(C#N)cc45)ccc3c2)CC1`, “residence time ratio” read 2 to 3 fold (Cyclin-dependent kinase 8, with cyclin C (CDK8, Homo sapiens, UniProt P49336); TR-FRET kinetics; reference: compound over Senexin B).
`O=c1nc(SCc2cc(F)cc(C(F)(F)F)c2)nc(SCc2ccc3nc(Cl)ccc3c2)[nH]1` — result for “ATP hydrolysis rate”: 0.332 µM/min and 2.38 µM/min (TOP2A; ATPase activity; 125 µM, together with: ATP 0.5 mM).
`O=C(Nc1ccc(F)c(Br)c1)c1ccc2c(c1)C(=O)NC2=O` — result for “activity recovery time”: 72 min (MAOB (Homo sapiens, UniProt P27338); enzyme activity, reversible inhibitor; concentration not given, 15 min pre-incubation).
For `O=c1cc(-c2ccc([N+](=O)[O-])cc2)[nH]c2c(-c3ccc(Cl)cc3)c(Cc3ccccc3)nn12`, “melting temperature shift” read 3.2 °C (SR-related and CTD-associated factor 8 (SCAF8, Homo sapiens, UniProt Q9UPN6); thermal stability, binder, thermal proteome profiling; RD, cell lysate; 50 µM, 0.5% DMSO; reference: DMSO vehicle).
For `Nc1ccn([C@H]2C[C@H](O)[C@@H](COP(=O)(O)OP(=O)(O)OP(=O)(O)O)O2)c(=O)n1`, the kcat was 0.000133 s⁻¹ (DNA polymerase beta (POLB, Homo sapiens, UniProt P06746); substrate; AP-site template).
`C=CC(=O)N1CCC(COCC(=O)N2CCN(c3nc(-c4cnc(N)nc4C(F)F)nc(N4CCOC[C@@H]4C)n3)CC2)CC1` gave a remaining binding of 58% (GRK4 (Homo sapiens, UniProt P32298); KINOMEscan; 1 µM).
For `CCCCC[C@H](O)/C=C/[C@H]1C(=O)C[C@H](O)[C@@H]1C/C=C\CCCC(=O)O`, the Emax was 124 ± 10% (PTGDR (Homo sapiens, UniProt Q13258, D319N); agonist).
With `CC1=NN(c2ccc(F)cc2)C(=O)C1=NNc1ccc(S(N)(=O)=O)cc1` the inhibition was 37.5% (bovine α-glucosidase; enzyme activity, inhibitor, glucose oxidase; 50 µg/mL, together with: maltose).
`O=C(COc1ccc(Cl)cc1Cl)Nc1nn(-c2ccccc2)c2cccnc12` — result for activity: “inactive” (Kir3.1/Kir3.4; activator, thallium flux; HEK293; concentration not given).
The robust Z-score of `Cc1cc(Nc2ccc3ccccc3c2)n2ccnc2n1` is reported as 21.6 (pyrD; enzyme activity, inhibitor, colorimetric HTS, measured: DCIP reduction; 3 µM; direction not given).
`c1ccc(-c2n[nH]cc2-c2ccncn2)nc1` gave a selectivity improvement of 5 fold (CSNK1A1 (Homo sapiens, UniProt P48729); enzyme activity; reference: LY selectivity fungal over CSNK1A1).
For `C=CCNC1=C2C[C@@H](C)C[C@H](OC)[C@H](O)[C@@H](C)/C=C(\C)[C@H](OC(N)=O)[C@@H](OC)/C=C\C=C(/C)C(=O)NC(=CC1=O)C2=O`, protein level read “no effect” (Clarin-1 (CLRN1, Homo sapiens, UniProt P58418, N48K); measured: CLRN1 N48K; D6; 20 µM).
`c1ccc(-c2n[nH]cc2-c2ccnc3ccccc23)nc1`: “log2 fold change” 1.67 (Cyclin-dependent kinase 1 (CDC28, Candida albicans, UniProt P43063); kinase binding, competitor, MIB/MS competition, measured: CDC28; Candida albicans cell lysate; 10 µM; reference: DMSO).
With `COc1cc(-c2cc(C(C)=O)n3ccccc23)c(OC)cc1Cn1ccnc1` the ΔTm was 1.4 °C (KAT2B (Homo sapiens, UniProt Q92831)).
The remaining activity of `C=CC(=O)N1CCC[C@@H](n2nc(-c3ccc(Oc4ccccc4)cc3)c3c(N)ncnc32)C1` is reported as 145% (Insulin receptor (INSR, Homo sapiens, UniProt P06213); 10 µM).
For `CCc1nc2nc(C)cc(Nc3ccc(C(F)(F)F)cc3)n2n1`, the robust Z-score was 21.1 (pyrD; enzyme activity, inhibitor, colorimetric HTS, measured: DCIP reduction; 3 µM; direction not given).
For `C[N+](C)(C)C[C@H](O)CC(=O)O`, the Ki was 490 µM (Carnitine O-acetyltransferase (CRAT, Columba livia, UniProt P52826); stopped-flow global fit; pH 7.8, ambient, ordered bi-bi mechanism).
The koff of `O=[N+]([O-])c1cc(C(F)(F)F)ccc1NCc1ccsc1` is reported as 1.45 ± 0.05 s⁻¹ (Endothelial PAS domain-containing protein 1, PAS-B domain (EPAS1, Homo sapiens, UniProt Q99814, N288A); ZZ-exchange NMR; 25 °C).
For `N[C@@H](CO)C(=O)Nc1ccc2ccccc2c1`, hydrolysis read “inactive” (rat aminopeptidase III; substrate; concentration not given, pH 7.0).
`COc1cc(F)cc2c(N3CCN4c5ccccc5OC[C@@H]4C3)c(C#N)nnc12` (single isomer, unassigned) has a maximal response of 59% (Grm7 (Rattus norvegicus, UniProt P35400); positive allosteric modulator; cell-based; together with: L-AP4 EC20; reference: L-AP4 maximum).
For `COc1cc2ccc(=O)oc2cc1O`, the Hill coefficient was 0.5 ± 0.1 (uncharacterized protein (Solanum tuberosum, UniProt M0ZZL3); enzyme activity).
The fold enrichment of `Cc1cccc(N2CC(C(=O)O)CC2=O)c1` (stereo not shown) is reported as 0.95 (Protein transport protein Sec31A (SEC31A, Homo sapiens, UniProt O94979); binding, affinity selection mass spectrometry; reference: other proteins in batch).
`NCCS(=O)(=O)O` — result for “normalised MST signal”: -0.00928 (SLC6A6 (Homo sapiens, UniProt P31641, S402A); binding, microscale thermophoresis; 488 nM, room temperature, together with: 50 nM labelled protein; higher = more binding).
`O=c1ccn([C@@H]2O[C@H](COP(=O)(O)O)[C@@H](O)[C@H]2O)c(=O)[nH]1` — result for “log2 fold change”: -0.0722 (binding, MIDAS equilibrium dialysis LC-MS; A2AR-BRIL thermostabilized; concentration not given; reference: no-protein control).
For `CC(=O)N[C@H](C(=O)N[C@H](C(=O)N[C@@H](Cc1ccccc1)C(=O)N[C@H](C(=O)N[C@@H](CO)C(=O)N[C@@H](Cc1c[nH]c2ccccc12)C(=O)N[C@@H](CCC(=O)O)C(=O)N[C@@H](CCC(=O)O)C(=O)N[C@@H](Cc1ccc(O)cc1)C(=O)N[C@@H](CC(C)C)C(=O)N[C@@H](CC(=O)O)C(=O)N[C@@H](Cc1c[nH]c2ccccc12)C(=O)N[C@H](C(N)=O)C(C)C)[C@@H](C)O)C(C)C)[C@@H](C)O`, the koff was 0.151 s⁻¹ (PCSK9 (Homo sapiens, UniProt Q8NBP7); binding, SPR; 156 nM to 5 µM, 20 °C).
With `O=c1nc(SCc2cc(F)cc(C(F)(F)F)c2)nc(SCc2csc3ccc(Cl)cc23)[nH]1` the decatenated DNA was 0% (TOP2A; decatenation; 0.12 µM, replicate 2).
The H2O2 concentration of `NC/C(=C\F)COc1cccc(Cn2c(=S)[nH]c(=O)c3[nH]cnc32)c1` is reported as -34.5 µM (Myeloperoxidase (MPO, Homo sapiens, UniProt P05164); H2O2 consumption, inhibitor, H2O2 electrode; 0.028 µM, 0 s).
